Experimental data gathered from unrelated publications.
Each numbered part is a random draw from the data of one study; scales do not carry over between parts. “And” joins repeats or separate records; there may be more than shown.
UniProt P09619, sequence (whole entry, looked up): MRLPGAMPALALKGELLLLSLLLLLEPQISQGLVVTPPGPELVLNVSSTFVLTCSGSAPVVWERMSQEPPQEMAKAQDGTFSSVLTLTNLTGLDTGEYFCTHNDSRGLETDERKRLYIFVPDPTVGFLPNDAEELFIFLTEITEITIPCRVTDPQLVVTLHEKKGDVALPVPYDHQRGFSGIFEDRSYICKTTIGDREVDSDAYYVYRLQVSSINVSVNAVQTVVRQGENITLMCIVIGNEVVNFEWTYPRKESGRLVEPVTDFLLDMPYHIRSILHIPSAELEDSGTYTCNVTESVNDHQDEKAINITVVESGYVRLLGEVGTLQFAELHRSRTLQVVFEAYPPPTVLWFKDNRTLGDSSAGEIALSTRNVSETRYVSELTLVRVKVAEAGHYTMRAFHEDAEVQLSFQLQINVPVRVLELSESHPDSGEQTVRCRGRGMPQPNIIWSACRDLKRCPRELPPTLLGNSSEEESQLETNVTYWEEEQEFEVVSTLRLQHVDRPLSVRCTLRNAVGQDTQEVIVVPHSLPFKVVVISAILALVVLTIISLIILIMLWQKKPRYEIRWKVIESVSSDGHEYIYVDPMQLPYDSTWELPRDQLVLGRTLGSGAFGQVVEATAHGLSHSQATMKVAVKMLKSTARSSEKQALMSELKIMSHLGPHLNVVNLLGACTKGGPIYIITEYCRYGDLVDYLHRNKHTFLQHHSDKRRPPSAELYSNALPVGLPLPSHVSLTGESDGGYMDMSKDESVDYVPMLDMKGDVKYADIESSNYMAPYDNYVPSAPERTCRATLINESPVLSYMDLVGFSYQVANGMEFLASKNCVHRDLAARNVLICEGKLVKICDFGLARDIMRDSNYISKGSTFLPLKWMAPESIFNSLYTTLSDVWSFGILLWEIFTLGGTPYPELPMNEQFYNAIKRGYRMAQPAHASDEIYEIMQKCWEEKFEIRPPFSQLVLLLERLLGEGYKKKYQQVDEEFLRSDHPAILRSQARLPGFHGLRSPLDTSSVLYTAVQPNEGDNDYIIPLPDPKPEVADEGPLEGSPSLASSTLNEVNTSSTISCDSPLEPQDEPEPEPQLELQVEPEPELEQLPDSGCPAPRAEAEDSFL
UniProt P9WI81, sequence (whole entry, looked up): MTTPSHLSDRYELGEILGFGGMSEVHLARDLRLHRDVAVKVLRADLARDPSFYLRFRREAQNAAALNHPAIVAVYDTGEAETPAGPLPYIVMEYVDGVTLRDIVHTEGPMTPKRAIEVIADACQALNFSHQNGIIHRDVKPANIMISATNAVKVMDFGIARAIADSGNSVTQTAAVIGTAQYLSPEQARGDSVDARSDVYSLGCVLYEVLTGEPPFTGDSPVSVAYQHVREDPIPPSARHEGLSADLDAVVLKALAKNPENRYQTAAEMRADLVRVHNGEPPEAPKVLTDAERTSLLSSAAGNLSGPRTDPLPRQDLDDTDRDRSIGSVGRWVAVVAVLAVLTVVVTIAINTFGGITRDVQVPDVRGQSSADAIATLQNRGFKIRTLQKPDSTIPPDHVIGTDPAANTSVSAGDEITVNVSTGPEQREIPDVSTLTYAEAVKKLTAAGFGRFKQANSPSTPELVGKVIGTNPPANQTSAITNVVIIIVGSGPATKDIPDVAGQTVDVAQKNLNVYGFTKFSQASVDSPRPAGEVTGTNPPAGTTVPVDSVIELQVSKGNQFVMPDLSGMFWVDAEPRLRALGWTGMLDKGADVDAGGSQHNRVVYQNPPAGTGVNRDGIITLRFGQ

Sample 1
Compound: CC(C)S(=O)(=O)c1cc2c(Nc3ccc4sc(C5CCCC5)nc4c3)ccnc2cc1OCCO
| cell line | test | conditions | viability |
| --- | --- | --- | --- |
| L929 RIPK3 knockout |  | 6.25 µM, together with: zVAD | 87.3% and 95.6% and 87.5% and 97.1% |
| L929 | CCK-8 | 3.125 µM, together with: zVAD | 94.2% and 101% and 99.3% and 93% and 99.2% |
| L929 RIPK3 knockout |  | 0.781 µM | 95.9% and 93.1% and 98.2% and 99.5% |
| L929 | CCK-8 | 1.563 µM, together with: zVAD | 95.5% and 96.2% and 92.1% and 91.6% |
| L929 | necroptosis protection, CCK-8 | 0.313 µM, together with: TNF-α plus zVAD | 65.7% |
| L929 RIPK3 knockout |  | 6.25 µM | 95.6% and 97.5% and 95% and 89.4% and 92.5% |
| L929 | CCK-8 | 50 µM | 35.3% and 34.7% and 56% and 35.4% and 36.2% |
| L929 | CCK-8 | 100 µM, together with: zVAD | 14.2% and 13.4% and 14.6% and 8.31% |
| L929 RIPK3 knockout |  | 0.781 µM, together with: zVAD | 90.2% and 94.9% and 98.7% and 93.9% and 94.4% |
| L929 | CCK-8 | 50 µM, together with: zVAD | 41.5% and 38.7% and 37.5% and 57.9% |
| L929 RIPK3 knockout |  | 50 µM, together with: zVAD | 52.5% and 52% and 50.5% and 56.6% |
| L929 | necroptosis protection, CCK-8 | 10 µM, together with: TNF-α plus zVAD | 103% |

Sample 2
Target: Dual specificity tyrosine-phosphorylation-regulated kinase 1B (DYRK1B, Homo sapiens, UniProt Q9Y463)
Read-out: enzyme activity
Action: inhibitor
Method: radiometric
Tested at: 0.5 µM
| Structure (SMILES) | remaining activity |
| --- | --- |
| N#CC(C#N)=C(N)/C(C#N)=C/c1ccc(O)cc1 | 101% |
| CNC(=O)c1cc(Oc2ccc(NC(=O)Nc3ccc(Cl)c(C(F)(F)F)c3)cc2)ccn1 | 93.2% |
| Nc1[nH]nc2nc3ccccc3nc12 | 96% |

Sample 3
Target: HLA class I histocompatibility antigen, C alpha chain, allele C*04:01 (Homo sapiens, UniProt P10321)
Read-out: peptide-MHC binding
Form: peptide
Tested at: concentration not given
| Sequence | binding |
| --- | --- |
| SPAAYVLPL | inactive |
| FVHDSVQYF | inactive |
| VALFSSCPVAY | inactive |
| HELSLFWPL | inactive |
| RYPIDPFLL | inactive |
| AQRAAGPSV | inactive |
| HPVTATISF | inactive |
| ITLFPSYQL | inactive |

Mixed results
Read-out: cell-free assay
Method: competition with immobilised ligand
| SMILES | target | conditions | remaining binding |
| --- | --- | --- | --- |
| Nc1c(C(=O)NCc2ccc(C(=O)NCCCC3CCCCC3)cc2)cnn1-c1ccccc1 | Serine/threonine-protein kinase PknB (pknB, Mycobacterium tuberculosis, UniProt P9WI81) | 0.1 µM | 100% |
| Cn1cncc1[C@@](O)(COc1ccc(C#N)cc1-c1ccc(OC(F)(F)F)cc1)c1ccc(C#N)cc1 | Platelet-derived growth factor receptor beta (PDGFRB, Homo sapiens, UniProt P09619) | 1 µM | 97% |

A few entries again (sample 3):
| Sequence | binding |
| --- | --- |
| VALFSSCPVAY | inactive |
| HELSLFWPL | inactive |
| RYPIDPFLL | inactive |
| AQRAAGPSV | inactive |
